Assay results gathered from unrelated publications.
Lines come from different studies, so protocols differ. “And” joins repeats or separate records; there may be more than shown. ± gives the spread as reported.
BCHE: Cholinesterase (BCHE, Homo sapiens, UniProt P06276)
UniProt P06276, sequence (whole entry, looked up): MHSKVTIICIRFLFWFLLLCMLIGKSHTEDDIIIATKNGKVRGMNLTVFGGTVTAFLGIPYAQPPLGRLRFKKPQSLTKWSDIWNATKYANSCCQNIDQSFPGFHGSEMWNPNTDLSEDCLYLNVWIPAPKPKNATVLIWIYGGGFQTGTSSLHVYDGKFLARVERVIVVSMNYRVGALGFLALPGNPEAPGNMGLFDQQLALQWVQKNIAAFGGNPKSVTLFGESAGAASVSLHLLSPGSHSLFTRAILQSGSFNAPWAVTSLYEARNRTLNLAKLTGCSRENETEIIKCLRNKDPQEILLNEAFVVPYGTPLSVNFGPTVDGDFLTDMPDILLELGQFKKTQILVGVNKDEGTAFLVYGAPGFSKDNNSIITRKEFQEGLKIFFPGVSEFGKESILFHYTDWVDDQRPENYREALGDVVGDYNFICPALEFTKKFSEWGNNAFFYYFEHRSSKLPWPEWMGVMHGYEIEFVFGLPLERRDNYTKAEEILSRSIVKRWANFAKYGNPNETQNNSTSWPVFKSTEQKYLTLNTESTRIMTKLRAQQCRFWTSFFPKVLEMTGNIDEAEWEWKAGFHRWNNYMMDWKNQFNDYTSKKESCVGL
UniProt Q15759, sequence (whole entry, looked up): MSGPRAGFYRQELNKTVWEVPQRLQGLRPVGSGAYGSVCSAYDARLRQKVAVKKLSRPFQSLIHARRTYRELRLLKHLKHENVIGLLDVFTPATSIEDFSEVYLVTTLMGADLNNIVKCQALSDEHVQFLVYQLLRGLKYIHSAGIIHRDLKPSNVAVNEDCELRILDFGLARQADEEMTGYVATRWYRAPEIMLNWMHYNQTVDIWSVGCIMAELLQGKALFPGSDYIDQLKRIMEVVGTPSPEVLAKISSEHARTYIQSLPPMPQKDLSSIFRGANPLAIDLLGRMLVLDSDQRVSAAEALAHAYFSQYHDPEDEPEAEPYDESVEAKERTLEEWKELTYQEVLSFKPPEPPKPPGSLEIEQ

Compound | target or system | test | test system | setting | scale | measurement | result
C[C@H](NC(=O)[C@H](CCCNC(=N)N)NC(=O)[C@H](Cc1c[nH]c2ccccc12)NC(=O)[C@H](CCCNC(=N)N)NC(=O)[C@H](Cc1c[nH]c2ccccc12)NC(=O)[C@H](Cc1c[nH]c2ccccc12)NC(=O)[C@H](Cc1c[nH]c2ccccc12)NC(=O)[C@H](CCCNC(=N)N)NC(=O)[C@H](Cc1c[nH]c2ccccc12)NC(=O)[C@H](CCCNC(=N)N)NC(=O)CN)C(N)=O | PK-15 |  |  |  |  | LC50 | 285 µM
O=S(=O)(c1ccc(O)cc1)c1ccc(O)cc1 | HepG2 spheroids | annexin V-FITC/PI flow cytometry |  | 0.10 µM, 96 h |  | necrotic cells | 43.1 ± 4.3%
CC(=N)S | THLE-2 | MTT |  | 400 µM, 96 h, 2D monolayer culture |  | viability | 47.7%
O=c1ccc2ccccc2o1 | HepG2 | cell membrane permeability |  | concentration not given, 1 h, necrosis and apoptosis panel |  | chance response | 0.05%
CO[C@H]1C[C@@H]2CC[C@@H](C)[C@@](O)(O2)C(=O)C(=O)N2CCCC[C@H]2C(=O)O[C@H]([C@H](C)C[C@@H]2CC[C@@H](OC(=O)NCCOCCOCCOCCOCCOCCOCCOCCOCCC(=O)N3CCc4cc(Cn5nc(-c6ccc7oc(N)nc7c6)c6c(N)ncnc65)ccc4C3)[C@H](OC)C2)C[C@@H](O)[C@H](C)/C=C(\C)[C@@H](O)[C@@H](OC)C(=O)[C@H](C)C[C@H](C)/C=C/C=C/C=C/1C |  | phase 1 dose escalation | advanced solid tumour patients | intravenous, 16 mg weekly, grade ≥3 |  | AEs causing dose modification | 100%
CC[C@H](C)[C@H](N)C(=O)N[C@H](C(=O)N[C@@H](C)C(=O)N[C@H](C(=O)N[C@H](C(=O)N[C@@H](CCCNC(=N)N)C(=O)N[C@@H](Cc1ccccc1)C(=O)N[C@@H](CO)C(=O)N[C@@H](CCCNC(=N)N)C(=O)N[C@@H](CCCNC(=N)N)C(=O)N[C@@H](CCCCN)C(=O)N[C@H](C(=O)N1CCC[C@H]1C(=O)N[C@@H](Cc1c[nH]c2ccccc12)C(=O)N[C@@H](CCC(N)=O)C(=O)N[C@@H](CCC(N)=O)C(=O)N[C@@H](CC(N)=O)C(=O)N[C@@H](Cc1ccccc1)C(=O)N[C@H](C(=O)N[C@@H](CC(N)=O)C(=O)N[C@@H](CC(N)=O)C(=O)N[C@@H](Cc1c[nH]cn1)C(=O)N[C@@H](CC(N)=O)C(=O)N1CCC[C@H]1C(=O)N[C@@H](CCCCN)C(=O)NCC(=O)N[C@@H](CCCNC(=N)N)C(=O)N[C@@H](CC(C)C)C(=O)N[C@@H](CCCNC(=N)N)C(=O)N[C@@H](CC(N)=O)C(=O)N[C@@H](CCC(N)=O)C(=O)N[C@@H](Cc1c[nH]cn1)C(=O)N[C@@H](CCCCN)C(=O)N[C@H](C(=O)N[C@@H](CO)C(=O)N[C@@H](CC(C)C)C(=O)N[C@@H](CCC(N)=O)C(=O)N[C@@H](CCCCN)C(=O)N[C@@H](CO)C(=O)N[C@H](C(=O)N[C@@H](C)C(=O)N[C@H](C(=O)N[C@@H](CCSC)C(=O)N[C@@H](CC(C)C)C(=O)N1CCC[C@H]1C(=O)N[C@@H](CCCCN)C(=O)O)C(C)C)[C@@H](C)O)C(C)C)C(C)C)[C@@H](C)CC)[C@@H](C)O)[C@@H](C)CC)[C@@H](C)CC | PMA-differentiated THP-1 | cell viability, MTT |  | 24 h |  | CC50 | 104 µM
Cn1c(C(=O)Nc2ccc3c(c2)OCCO3)cc2c(=O)n3ccccc3nc21 | Vero | MTT |  | 100 µM, 24 (unit not given) |  | viability | 43.4%
O=C(NCCN1CCC2(CC1)C(=O)NCN2c1cccc(F)c1)c1ccc(F)c(F)c1 | BCHE | inhibitor, fluorometric |  |  |  | IC50 | 0.71 ± 0.57 µM
CCCCCc1nc(N)[nH]c(=O)c1Br | HeLa | cell morphology alteration |  |  |  | minimum cytotoxic concentration | 20 µM
O=C(c1ccc(Cl)cc1)N1CCN2C(=O)N(OC(=O)N3CCOc4ccccc43)C(=O)C2C1 (stereo not drawn) | BCHE | MS-based ABPP | SW-620 conditioned medium | 10 µM, 1 h, 37 °C | reference: compound over DMSO, lower = more inhibition | median protein ratio | 1.25
CC(C)C[C@H](NC(=O)[C@H](C)NC(=O)[C@@H](NC(=O)[C@H](CCCNC(=N)N)NC(=O)[C@H](CC(C)C)NC(=O)[C@H](Cc1c[nH]c2ccccc12)NC(=O)[C@@H]1CCCN1C(=O)[C@@H](N)CCCCN)C(C)C)C(=O)N[C@@H](CS)C(=O)N1CCC[C@H]1C(=O)NCC(=O)O | Vero | WST-1 |  | 128 µM, 24 h |  | viability | 107% and 108%
CC(C)C[C@H](NC(=O)[C@H](CCCNC(=N)N)NC(=O)[C@H](Cc1c[nH]c2ccccc12)NC(=O)[C@H](CCCNC(=N)N)NC(=O)[C@H](Cc1c[nH]c2ccccc12)NC(=O)[C@H](Cc1c[nH]c2ccccc12)NC(=O)[C@H](Cc1c[nH]c2ccccc12)NC(=O)[C@H](CCCNC(=N)N)NC(=O)[C@H](Cc1c[nH]c2ccccc12)NC(=O)[C@H](CCCNC(=N)N)NC(=O)CN)C(N)=O | PK-15 |  |  |  |  | LC50 | 93.5 µM
CC[C@]1(O)C[C@H]2CN(CCc3c([nH]c4ccccc34)[C@@](C(=O)OC)(c3cc4c(cc3OC)N(C=O)[C@H]3[C@@](O)(C(=O)OC)[C@H](OC(C)=O)[C@]5(CC)C=CCN6CC[C@]43[C@@H]65)C2)C1 | Plasmodium falciparum |  | D10 |  |  | IC50 | 0.501 µM
Cc1cc(C(C)(C)c2ccc(O)c(C)c2)ccc1O | HepG2 spheroids | annexin V-FITC/PI flow cytometry |  | 0.01 µM, 96 h |  | necrotic cells | 36.5 ± 17.7%
CN1CCC(=C2c3ccccc3CC(=O)c3sccc32)CC1 | Plasmodium falciparum |  | W2 |  |  | IC50 | 0.794 µM
Oc1ccc(C(c2ccc(O)cc2)(C(F)(F)F)C(F)(F)F)cc1 | HepG2 spheroids, dissociated | annexin V-FITC/PI flow cytometry |  | 1 µM, 96 h |  | early apoptotic cells | 9.65 ± 1.25%
Cc1ccc(NC(=O)c2cc3c(=O)n4cccc(C)c4nc3n2C)cc1Cl | Vero | MTT |  | 6.3 µM, 24 (unit not given) |  | viability | 66.6%
C[C@H]1CN(c2n[nH]c3nc(N[C@H]4CC[C@H](NS(=O)(=O)CCC(F)(F)F)CC4)ncc23)CCO1 | MAPK11 (Homo sapiens, UniProt Q15759) | competitor, Kinobeads competition | HEK293, K562, placenta extract | 0.032 µM | reference: vehicle | relative abundance | 0.89
